Assay results collected from several papers.
Every numbered part comes from another study and shows a few of its results, in no order.
UniProt Q8H174, sequence (whole entry, looked up): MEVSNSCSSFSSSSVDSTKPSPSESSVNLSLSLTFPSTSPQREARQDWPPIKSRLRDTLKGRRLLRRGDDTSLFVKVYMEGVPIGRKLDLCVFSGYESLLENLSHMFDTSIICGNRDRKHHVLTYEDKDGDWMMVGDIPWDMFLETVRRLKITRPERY
UniProt P10398, sequence (whole entry, looked up): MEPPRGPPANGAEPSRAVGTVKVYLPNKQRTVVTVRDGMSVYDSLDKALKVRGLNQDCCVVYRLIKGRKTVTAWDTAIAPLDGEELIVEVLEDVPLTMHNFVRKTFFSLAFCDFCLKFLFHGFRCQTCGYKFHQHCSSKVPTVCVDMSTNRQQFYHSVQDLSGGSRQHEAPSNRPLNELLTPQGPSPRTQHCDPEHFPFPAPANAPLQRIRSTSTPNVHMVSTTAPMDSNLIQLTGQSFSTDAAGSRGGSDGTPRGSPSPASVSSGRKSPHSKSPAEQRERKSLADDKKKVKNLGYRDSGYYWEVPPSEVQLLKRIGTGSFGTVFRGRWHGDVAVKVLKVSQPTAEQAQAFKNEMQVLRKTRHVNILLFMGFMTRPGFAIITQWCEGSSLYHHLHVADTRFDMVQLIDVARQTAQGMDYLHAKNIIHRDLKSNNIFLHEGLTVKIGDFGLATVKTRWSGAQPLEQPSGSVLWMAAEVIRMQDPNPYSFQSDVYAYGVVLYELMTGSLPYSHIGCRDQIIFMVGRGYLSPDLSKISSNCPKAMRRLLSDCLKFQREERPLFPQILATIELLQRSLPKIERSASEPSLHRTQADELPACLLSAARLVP
UniProt Q9ZSY8, sequence (whole entry, looked up): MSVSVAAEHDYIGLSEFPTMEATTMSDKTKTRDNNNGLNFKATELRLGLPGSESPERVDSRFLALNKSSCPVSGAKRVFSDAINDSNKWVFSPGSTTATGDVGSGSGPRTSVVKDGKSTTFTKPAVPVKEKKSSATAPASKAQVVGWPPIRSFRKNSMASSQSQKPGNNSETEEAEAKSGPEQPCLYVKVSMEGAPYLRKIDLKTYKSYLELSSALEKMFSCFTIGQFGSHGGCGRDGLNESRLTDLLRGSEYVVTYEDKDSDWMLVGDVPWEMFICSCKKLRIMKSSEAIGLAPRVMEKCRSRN
UniProt Q96PY6, sequence (whole entry, looked up): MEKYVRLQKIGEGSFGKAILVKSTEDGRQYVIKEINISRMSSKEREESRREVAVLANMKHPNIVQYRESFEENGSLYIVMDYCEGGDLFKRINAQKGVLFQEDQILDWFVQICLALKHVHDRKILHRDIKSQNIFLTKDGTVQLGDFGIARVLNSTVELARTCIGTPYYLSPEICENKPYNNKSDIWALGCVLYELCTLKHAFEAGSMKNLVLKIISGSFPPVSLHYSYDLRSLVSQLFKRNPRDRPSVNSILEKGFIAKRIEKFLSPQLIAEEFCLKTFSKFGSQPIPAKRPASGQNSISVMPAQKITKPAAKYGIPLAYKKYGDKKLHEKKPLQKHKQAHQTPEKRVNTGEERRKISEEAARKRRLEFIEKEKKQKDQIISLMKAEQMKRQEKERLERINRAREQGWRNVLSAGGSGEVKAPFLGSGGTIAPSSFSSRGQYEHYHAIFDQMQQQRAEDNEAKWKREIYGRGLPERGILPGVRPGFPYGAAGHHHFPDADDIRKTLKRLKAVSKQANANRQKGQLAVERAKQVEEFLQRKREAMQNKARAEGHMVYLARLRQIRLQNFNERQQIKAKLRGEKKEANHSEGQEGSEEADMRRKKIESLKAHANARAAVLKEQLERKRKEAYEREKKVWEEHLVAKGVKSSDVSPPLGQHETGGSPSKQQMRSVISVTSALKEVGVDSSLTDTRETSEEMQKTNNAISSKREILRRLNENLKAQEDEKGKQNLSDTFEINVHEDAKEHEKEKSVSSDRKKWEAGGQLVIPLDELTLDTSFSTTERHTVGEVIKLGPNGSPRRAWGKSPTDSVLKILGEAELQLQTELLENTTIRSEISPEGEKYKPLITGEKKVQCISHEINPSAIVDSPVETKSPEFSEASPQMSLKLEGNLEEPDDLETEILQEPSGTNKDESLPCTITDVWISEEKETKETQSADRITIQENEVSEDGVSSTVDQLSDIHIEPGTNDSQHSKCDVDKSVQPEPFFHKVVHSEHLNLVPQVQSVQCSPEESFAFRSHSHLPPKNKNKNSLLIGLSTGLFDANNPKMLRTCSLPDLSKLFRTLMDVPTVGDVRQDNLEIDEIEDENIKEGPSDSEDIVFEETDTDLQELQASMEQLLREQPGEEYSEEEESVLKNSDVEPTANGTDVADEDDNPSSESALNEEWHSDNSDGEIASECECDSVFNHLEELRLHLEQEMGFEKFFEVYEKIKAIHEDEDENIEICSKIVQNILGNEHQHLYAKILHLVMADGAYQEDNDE
UniProt Q12866, sequence (whole entry, looked up): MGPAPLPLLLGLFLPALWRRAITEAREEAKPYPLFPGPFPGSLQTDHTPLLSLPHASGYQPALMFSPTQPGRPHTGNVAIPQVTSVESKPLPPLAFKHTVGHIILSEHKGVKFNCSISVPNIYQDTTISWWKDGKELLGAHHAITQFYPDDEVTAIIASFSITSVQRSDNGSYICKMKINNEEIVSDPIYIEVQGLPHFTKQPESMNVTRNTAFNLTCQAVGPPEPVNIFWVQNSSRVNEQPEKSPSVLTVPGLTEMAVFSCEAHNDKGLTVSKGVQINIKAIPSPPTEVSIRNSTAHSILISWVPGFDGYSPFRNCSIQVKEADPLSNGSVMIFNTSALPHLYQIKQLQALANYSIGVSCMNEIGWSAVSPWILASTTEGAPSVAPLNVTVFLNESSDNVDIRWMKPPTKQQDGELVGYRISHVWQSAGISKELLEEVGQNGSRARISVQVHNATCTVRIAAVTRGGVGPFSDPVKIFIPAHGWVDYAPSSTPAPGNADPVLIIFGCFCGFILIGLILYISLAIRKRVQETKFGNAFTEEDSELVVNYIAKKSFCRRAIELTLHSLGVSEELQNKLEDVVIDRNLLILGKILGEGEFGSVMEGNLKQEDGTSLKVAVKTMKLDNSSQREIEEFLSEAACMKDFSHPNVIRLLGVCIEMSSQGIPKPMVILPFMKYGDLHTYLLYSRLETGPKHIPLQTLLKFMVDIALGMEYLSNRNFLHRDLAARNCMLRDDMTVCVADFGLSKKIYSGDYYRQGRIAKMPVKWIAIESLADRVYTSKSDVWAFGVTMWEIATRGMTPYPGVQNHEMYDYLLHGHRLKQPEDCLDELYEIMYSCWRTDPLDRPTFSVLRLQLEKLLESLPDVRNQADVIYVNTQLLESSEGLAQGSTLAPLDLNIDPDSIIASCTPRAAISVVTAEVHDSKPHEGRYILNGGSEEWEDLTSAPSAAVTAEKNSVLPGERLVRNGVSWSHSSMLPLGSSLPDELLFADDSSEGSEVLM
UniProt Q9XED8, sequence (whole entry, looked up): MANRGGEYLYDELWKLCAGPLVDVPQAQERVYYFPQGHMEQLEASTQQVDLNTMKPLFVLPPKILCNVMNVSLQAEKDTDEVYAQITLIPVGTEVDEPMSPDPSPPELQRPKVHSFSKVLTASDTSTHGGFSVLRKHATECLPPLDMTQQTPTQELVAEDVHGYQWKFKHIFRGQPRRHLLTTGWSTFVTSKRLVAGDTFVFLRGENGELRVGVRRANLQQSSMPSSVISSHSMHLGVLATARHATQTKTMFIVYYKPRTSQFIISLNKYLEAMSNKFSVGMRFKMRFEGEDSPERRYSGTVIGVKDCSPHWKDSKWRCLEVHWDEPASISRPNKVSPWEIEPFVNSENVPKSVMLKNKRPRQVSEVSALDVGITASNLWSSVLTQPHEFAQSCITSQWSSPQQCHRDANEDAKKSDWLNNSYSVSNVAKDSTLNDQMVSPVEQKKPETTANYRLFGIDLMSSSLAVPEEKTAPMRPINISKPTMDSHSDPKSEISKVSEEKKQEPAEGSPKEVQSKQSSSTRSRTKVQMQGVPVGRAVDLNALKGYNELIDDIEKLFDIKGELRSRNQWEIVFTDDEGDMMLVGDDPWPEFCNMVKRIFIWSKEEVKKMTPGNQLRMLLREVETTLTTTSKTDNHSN
UniProt Q9UHD2, sequence (whole entry, looked up): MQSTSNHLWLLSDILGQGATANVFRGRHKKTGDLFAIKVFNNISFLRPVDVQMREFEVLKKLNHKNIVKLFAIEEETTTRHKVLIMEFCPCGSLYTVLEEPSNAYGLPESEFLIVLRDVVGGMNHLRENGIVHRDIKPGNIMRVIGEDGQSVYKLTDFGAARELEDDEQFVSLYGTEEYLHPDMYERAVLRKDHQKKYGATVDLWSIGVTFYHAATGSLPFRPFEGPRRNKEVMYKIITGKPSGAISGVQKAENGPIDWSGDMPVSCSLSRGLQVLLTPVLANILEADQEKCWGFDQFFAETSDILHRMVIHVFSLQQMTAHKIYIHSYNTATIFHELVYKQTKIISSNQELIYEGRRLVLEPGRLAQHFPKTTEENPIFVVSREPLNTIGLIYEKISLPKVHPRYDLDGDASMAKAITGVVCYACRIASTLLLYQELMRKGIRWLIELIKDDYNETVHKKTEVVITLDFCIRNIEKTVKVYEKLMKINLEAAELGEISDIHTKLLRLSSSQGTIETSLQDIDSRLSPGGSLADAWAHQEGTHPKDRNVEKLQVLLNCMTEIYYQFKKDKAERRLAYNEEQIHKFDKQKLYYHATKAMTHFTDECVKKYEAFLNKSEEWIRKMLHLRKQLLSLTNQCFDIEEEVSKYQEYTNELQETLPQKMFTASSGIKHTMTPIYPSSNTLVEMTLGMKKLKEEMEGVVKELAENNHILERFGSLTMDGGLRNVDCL

Series 1
Target: Sal-like protein 4, full length isoform B (SALL4, Homo sapiens, UniProt Q9UJQ4-2, residues 1-616)
Method: universal PBM
Molecule type: double-stranded DNA, one strand shown
Medium: in vitro
Tested at: not given
Setting: 8-mer, flanks averaged, mean of replicates
Direction: higher = stronger binding
Construct (chain): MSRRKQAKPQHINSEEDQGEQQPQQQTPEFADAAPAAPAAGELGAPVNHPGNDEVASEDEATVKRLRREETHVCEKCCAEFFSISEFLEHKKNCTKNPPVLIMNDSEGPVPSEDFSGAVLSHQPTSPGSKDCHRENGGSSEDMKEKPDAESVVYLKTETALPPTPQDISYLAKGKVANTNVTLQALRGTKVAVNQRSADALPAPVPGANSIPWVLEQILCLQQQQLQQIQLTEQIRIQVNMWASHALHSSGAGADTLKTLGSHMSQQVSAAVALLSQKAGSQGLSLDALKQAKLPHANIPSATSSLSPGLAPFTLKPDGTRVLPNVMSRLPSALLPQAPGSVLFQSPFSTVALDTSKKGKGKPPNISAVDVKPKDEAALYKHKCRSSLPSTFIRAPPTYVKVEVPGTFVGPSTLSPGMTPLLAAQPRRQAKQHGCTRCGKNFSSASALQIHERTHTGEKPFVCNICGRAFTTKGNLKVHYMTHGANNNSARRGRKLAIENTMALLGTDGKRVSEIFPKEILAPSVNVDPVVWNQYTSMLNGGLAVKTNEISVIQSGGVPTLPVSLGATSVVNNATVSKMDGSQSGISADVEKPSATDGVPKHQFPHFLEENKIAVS
Oligonucleotide | E-score
CAATAGAA | 0.162
GTCTTTCA | 0.0632
ACTGTTGG | -0.0152
TACACCCA | 0.0216
AGCCGCGG | -0.325
TGACTACA | 0.224
AGTAATCG | 0.0345
ACAAAAAC | 0.0971

Series 2
Target: RNA binding protein fox-1 homolog 2, RRM domain, GST-SBP tag (RBFOX2, Homo sapiens, UniProt O43251-10, residues 100-194)
Method: RNA Bind-n-Seq
Molecule type: RNA
Medium: in vitro
Tested at: 365 nM
Setting: natural RNA segment, single round, ends assumed
Reference: no-protein control
Direction: higher = stronger binding
Construct (chain): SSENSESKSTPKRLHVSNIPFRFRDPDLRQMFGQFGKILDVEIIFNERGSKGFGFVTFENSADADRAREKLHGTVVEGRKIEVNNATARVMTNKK
Oligonucleotide | RBNS enrichment (R)
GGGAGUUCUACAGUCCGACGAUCCACUGAUGCUGGCGAUGAUGCAGAGCUGUCGCUGCCCUCAGCUCCUGCUGGCUUGUUUAUCAGGGAUAUGGGAGCUGCGGGCAUGACAGCCACAUUCUCCCAGAAGAGACUGGAAUUCUCGGGUGCCAA | 0.353
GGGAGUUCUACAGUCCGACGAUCGGGGUUUAAACAUUUGACAGCCAACUCUAUUUUUAUACGACUACUAUACAAAGAAACUACAUAUAGUUUUAUGAUUUAAGGUACUUAGAAAUGUUUAUGGUUAACAUUGUUGGAAUUCUCGGGUGCCAA | 0.513
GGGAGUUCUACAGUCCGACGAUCAUCUGGUGCUGGGGGCAGCCGGUGCAGCCCCGGGGAGCCCUGGCCUGGUGACCUCGCCGCUCUUCUUGAAUCAUGCUGGGCUGCCCCUGCUCAGCACCCCGCCUGGUGUGUGGAAUUCUCGGGUGCCAA | 0.258
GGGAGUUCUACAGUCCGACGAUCUCAUAUCUGAGACAGCCCUCAGCUGAGGGCUUGUGGGACAGUGUCCAAGCCUCAGGCUGGGCUCAUUCAUAUAAUUGCAAUAAAUGGUACGUGUCCAUUUGGACAGCAGAUGGAAUUCUCGGGUGCCAA | 0.323
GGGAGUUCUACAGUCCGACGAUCCUGGGUCCCAGCGAAAGAAAAGCUUGAAGACGGAUGUUGUUCUUUCUUUUUUCCAUGGUCUCAUCUCUUGCCCUGUUGUGGAGUCUGUCUUCGGUGUCCUCCACACUGACUGGAAUUCUCGGGUGCCAA | 0.494
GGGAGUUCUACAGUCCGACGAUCGAGUAGAACAUGAACUAGUUAGAGCGAGAGAACCCUUGGUCCUGAAUAGUGGAGUUAUAGAGAAGGGCCAGUCCUAAGAUGGAAGGAGCCCUACAAUCUGACUCCUUCUAUGGAAUUCUCGGGUGCCAA | 0.982
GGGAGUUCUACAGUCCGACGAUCUUCGUCACUGAAGAAAUCAUUCCCCUCGGGAAUCAGGAGUGCCUGGAGCACUGUGGGGACGGACUCCGCCUGCUGUUCCCGCGCUGAGCUACAGGACUCCCGAGUGUGAGUGGAAUUCUCGGGUGCCAA | 0.525
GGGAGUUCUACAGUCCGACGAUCGAAGAGAAAAAAUUCUCUAAAGCAGGUGAGCUUUAAUGAACAAAUGUGUAUUUUAUCUGAGUUUGAGUAGGGUGCGUUGUGGAUUUUGUUUUUUGGGUUUUUUUUUUUUUUGGAAUUCUCGGGUGCCAA | 1.48

Series 3
SMILES: Nc1nc(Nc2ccc(S(N)(=O)=O)cc2)nn1C(=O)c1c(F)cccc1F
Observed: enzyme activity
Mode: inhibitor
Tested at: 0.5 µM
Reference: control
target | remaining activity [%]
Serine/threonine-protein kinase TAO2 (TAOK2, Homo sapiens, UniProt Q9UL54) | 8.93
Angiopoietin-1 receptor (TEK, Homo sapiens, UniProt Q02763) | 84.2
Tyrosine-protein kinase JAK3 (JAK3, Homo sapiens, UniProt P52333) | 8.5
Activin receptor type-1B (ACVR1B, Homo sapiens, UniProt P36896) | 118
Macrophage-stimulating protein receptor (MST1R, Homo sapiens, UniProt Q04912) | 115
Rhodopsin kinase GRK7 (GRK7, Homo sapiens, UniProt Q8WTQ7) | 65.9
Tyrosine-protein kinase Lck (LCK, Homo sapiens, UniProt P06239) | 87.9
Dual specificity mitogen-activated protein kinase kinase 2 (MAP2K2, Homo sapiens, UniProt P36507) | 85.6
MAP kinase-activated protein kinase 2 (MAPKAPK2, Homo sapiens, UniProt P49137) | 95.8
Mitogen-activated protein kinase kinase kinase 5 (MAP3K5, Homo sapiens, UniProt Q99683) | 103
Mitogen-activated protein kinase 3 (MAPK3, Homo sapiens, UniProt P27361) | 108
Ribosomal protein S6 kinase alpha-2 (RPS6KA2, Homo sapiens, UniProt Q15349) | 42.2
Serine/threonine-protein kinase Nek1 (NEK1, Homo sapiens, UniProt Q96PY6) | 76.3
Serine/threonine-protein kinase Nek6 (NEK6, Homo sapiens, UniProt Q9HC98) | 102
Tyrosine-protein kinase FRK (FRK, Homo sapiens, UniProt P42685) | 90.9
Mitogen-activated protein kinase kinase kinase 14 (MAP3K14, Homo sapiens, UniProt Q99558) | 106
Tyrosine-protein kinase Mer (MERTK, Homo sapiens, UniProt Q12866) | 70.2
Serine/threonine-protein kinase A-Raf (ARAF, Homo sapiens, UniProt P10398) | 93.1
Serine/threonine-protein kinase TBK1 (TBK1, Homo sapiens, UniProt Q9UHD2) | 80
Serine/threonine-protein kinase ULK2 (ULK2, Homo sapiens, UniProt Q8IYT8) | 102

Series 4
Target: Translocator protein (Tspo, Rattus norvegicus, UniProt P16257)
UniProt P16257, sequence (whole entry, looked up): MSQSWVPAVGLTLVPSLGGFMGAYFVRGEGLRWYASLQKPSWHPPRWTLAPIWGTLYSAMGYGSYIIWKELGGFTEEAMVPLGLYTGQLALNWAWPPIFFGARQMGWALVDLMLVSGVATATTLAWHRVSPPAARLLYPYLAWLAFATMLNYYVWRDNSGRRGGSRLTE
Observed: radioligand binding
Method: radioligand displacement
Tested at: 10 µM
Compound | inhibition [%]
CCNC(=O)c1cc2c(N3CCOC[C@@H]3C)ccnc2[nH]1 | 30.1
N#CN1CC[C@H](C(=O)Nc2nc3c(s2)CN(C(=O)CN=[N+]=[N-])CC3)C1 | 21.9
O=S(=O)(NC1CCC(c2cc(F)ccc2F)(S(=O)(=O)c2ccc(Cl)cc2)CC1)C(F)(F)F (centres unmarked) | 37.2
COc1cccc(CNC(=O)c2nc3scc(COCc4ccc(C(=O)O)cc4)c3c(=O)[nH]2)c1 | 3.29

Series 5
Molecule: B1 (IAA7)
Method: two-hybrid
Direction: higher = firmer interaction
B1: IAA7 (Arabidopsis thaliana, UniProt Q38825); chain MIGQLMNLKATELCLGLPGGAEAVESPAKSAVGSKRGFSETVDLMLNLQSNKEGSVDLKNVSAVPKEKTTLKDPSKPPAKAQVVGWPPVRNYRKNMMTQQKTSSGAEEASSEKAGNFGGGAAGAGLVKVSMDGAPYLRKVDLKMYKSYQDLSDALAKMFSSFTMGNYGAQGMIDFMNESKLMNLLNSSEYVPSYEDKDGDWMLVGDVPWEMFVESCKRLRIMKGSEAVGLAPRAMEKYCKNRS
partner | setting | reference | positive tests
IAA31 (Arabidopsis thaliana, UniProt Q8H174) | – | out of 2 tests | 0
IAA27 (Arabidopsis thaliana, UniProt Q9ZSY8) | – | out of 4 tests | 2
ARF4 660-788 (Arabidopsis thaliana, UniProt Q9ZTX9) | – | out of 4 tests | 3
ARF1 538-665 (Arabidopsis thaliana, UniProt Q8L7G0) | – | out of 2 tests | 0
IAA34 (Arabidopsis thaliana, UniProt Q9C5X0) | – | out of 4 tests | 4
IAA20 (Arabidopsis thaliana, UniProt O24410) | weak activation fusion | out of 4 tests | 2
ARF9 519-638 (Arabidopsis thaliana, UniProt Q9XED8) | weak activation fusion | out of 2 tests | 0

For quick reference, copied from above (series 3):
target | remaining activity [%]
Activin receptor type-1B (ACVR1B, Homo sapiens, UniProt P36896) | 118
Macrophage-stimulating protein receptor (MST1R, Homo sapiens, UniProt Q04912) | 115
Rhodopsin kinase GRK7 (GRK7, Homo sapiens, UniProt Q8WTQ7) | 65.9
